Experimental data pooled from the literature.
Every numbered part comes from another study and shows a few of its results, in no order. “And” joins repeats or separate records; there may be more than shown. Values after ≈ are worked out from the molar mass of the structure shown.
UniProt P10721, sequence (whole entry, unmodified, looked up): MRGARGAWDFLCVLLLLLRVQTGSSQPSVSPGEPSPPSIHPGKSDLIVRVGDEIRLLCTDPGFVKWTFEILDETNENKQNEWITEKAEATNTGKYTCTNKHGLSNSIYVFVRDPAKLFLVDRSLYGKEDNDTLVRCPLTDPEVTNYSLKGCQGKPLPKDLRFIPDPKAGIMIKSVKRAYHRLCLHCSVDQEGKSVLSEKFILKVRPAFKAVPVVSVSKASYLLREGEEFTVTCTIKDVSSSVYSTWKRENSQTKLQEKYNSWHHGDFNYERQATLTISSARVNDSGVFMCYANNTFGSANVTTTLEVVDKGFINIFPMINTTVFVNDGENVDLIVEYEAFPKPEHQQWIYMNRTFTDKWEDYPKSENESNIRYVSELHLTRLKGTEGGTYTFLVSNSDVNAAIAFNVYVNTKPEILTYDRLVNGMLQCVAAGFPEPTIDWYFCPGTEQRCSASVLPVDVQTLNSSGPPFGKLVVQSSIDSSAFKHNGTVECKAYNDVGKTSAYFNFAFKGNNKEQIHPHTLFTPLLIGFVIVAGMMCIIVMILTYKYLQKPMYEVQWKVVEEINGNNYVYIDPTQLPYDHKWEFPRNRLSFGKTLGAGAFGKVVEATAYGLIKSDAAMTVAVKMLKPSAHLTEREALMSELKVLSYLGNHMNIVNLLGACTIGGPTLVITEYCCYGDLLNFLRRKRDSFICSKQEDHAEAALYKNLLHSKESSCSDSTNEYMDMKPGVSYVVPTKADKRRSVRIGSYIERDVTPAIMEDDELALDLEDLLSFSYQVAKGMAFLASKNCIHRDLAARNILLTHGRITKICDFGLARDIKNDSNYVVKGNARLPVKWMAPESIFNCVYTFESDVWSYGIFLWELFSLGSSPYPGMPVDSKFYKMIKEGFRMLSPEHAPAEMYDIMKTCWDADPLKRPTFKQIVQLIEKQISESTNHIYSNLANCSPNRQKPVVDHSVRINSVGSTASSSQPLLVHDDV
UniProt Q9UK32, sequence (whole entry, looked up): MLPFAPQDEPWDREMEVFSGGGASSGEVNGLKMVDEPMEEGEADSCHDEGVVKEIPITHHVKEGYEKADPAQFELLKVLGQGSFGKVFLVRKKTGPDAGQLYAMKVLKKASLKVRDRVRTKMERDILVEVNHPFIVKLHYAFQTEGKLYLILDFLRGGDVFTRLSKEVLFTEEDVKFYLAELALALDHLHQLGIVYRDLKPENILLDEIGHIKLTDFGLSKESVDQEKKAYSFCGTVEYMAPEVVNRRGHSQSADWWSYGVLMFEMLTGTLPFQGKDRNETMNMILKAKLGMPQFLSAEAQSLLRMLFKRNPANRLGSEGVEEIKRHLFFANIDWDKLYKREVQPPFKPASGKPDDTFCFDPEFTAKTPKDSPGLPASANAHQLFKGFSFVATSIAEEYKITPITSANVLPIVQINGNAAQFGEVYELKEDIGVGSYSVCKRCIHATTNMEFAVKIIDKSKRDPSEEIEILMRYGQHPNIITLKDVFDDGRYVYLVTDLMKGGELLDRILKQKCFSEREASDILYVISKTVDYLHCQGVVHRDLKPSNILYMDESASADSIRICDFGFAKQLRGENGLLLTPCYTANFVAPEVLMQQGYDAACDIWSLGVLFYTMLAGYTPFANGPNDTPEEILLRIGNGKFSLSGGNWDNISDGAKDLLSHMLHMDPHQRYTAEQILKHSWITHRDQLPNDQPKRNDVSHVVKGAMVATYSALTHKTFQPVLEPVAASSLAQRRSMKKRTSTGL
UniProt P51812, sequence (whole entry, looked up): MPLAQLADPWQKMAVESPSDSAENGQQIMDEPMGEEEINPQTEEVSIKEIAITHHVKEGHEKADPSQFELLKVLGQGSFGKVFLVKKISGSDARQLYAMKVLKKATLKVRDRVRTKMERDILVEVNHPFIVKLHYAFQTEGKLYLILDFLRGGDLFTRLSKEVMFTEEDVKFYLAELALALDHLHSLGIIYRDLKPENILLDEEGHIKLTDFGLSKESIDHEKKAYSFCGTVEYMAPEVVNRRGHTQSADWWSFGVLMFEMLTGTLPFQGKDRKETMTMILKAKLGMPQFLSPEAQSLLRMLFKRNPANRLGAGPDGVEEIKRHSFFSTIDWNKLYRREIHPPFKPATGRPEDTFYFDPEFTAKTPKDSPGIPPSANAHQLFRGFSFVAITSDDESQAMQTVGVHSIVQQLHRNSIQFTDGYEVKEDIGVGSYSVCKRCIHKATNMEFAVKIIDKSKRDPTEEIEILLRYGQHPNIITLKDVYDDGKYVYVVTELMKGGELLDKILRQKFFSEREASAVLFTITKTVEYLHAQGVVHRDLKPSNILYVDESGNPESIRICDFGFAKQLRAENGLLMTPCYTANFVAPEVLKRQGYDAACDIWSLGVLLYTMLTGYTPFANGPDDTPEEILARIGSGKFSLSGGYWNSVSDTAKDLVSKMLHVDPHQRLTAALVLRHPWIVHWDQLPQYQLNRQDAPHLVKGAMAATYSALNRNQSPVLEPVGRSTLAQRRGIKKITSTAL
UniProt Q9C098, sequence (whole entry, looked up): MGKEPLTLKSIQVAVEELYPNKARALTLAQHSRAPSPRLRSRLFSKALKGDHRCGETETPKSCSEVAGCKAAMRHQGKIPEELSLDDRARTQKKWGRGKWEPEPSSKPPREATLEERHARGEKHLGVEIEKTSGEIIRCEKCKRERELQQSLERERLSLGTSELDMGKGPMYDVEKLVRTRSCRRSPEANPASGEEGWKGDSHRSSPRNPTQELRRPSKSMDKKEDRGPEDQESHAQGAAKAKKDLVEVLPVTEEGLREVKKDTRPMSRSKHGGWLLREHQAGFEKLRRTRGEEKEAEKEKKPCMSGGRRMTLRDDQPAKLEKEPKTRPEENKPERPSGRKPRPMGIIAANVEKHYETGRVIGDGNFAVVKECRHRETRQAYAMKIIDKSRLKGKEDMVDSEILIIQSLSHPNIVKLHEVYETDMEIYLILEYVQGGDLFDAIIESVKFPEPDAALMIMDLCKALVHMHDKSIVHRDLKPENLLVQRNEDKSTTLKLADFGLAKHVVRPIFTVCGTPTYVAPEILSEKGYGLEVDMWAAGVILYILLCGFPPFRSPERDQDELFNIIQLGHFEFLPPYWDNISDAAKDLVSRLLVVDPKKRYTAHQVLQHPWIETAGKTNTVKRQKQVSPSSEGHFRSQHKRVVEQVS
UniProt Q99640, sequence (whole entry, looked up): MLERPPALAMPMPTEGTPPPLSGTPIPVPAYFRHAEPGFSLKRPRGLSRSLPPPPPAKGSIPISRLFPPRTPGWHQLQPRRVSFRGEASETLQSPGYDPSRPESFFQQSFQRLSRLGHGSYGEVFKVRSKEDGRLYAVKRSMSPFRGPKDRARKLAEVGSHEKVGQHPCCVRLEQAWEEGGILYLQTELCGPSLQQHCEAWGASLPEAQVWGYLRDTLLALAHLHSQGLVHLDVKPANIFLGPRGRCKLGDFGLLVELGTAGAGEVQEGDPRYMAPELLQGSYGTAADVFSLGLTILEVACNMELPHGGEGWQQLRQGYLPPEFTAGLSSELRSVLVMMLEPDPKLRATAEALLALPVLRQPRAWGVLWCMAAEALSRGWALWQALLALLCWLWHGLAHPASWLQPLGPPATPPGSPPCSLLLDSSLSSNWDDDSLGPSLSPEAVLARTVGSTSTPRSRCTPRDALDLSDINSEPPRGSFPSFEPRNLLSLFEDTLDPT

Study 1 — read-out: binding; method: competition with immobilised ligand; tested at: 1 µM
Structure (SMILES): COc1cc(-c2nc3ccc(C(=O)NCCCN4CCN(c5cccc(C)c5C)CC4)cc3n2C2CCC2)cc(OC)c1OC
| target | remaining binding [%] |
| --- | --- |
| DAPK3 (Homo sapiens, UniProt O43293) | 100 |
| KIT (Homo sapiens, UniProt P10721, L576P) | 100 |
| PIK3CA (Homo sapiens, UniProt P42336, C420R) | 100 |
| MAP3K14 (Homo sapiens, UniProt Q99558) | 100 |
| LRRK2 (Homo sapiens, UniProt Q5S007, G2019S) | 97 |
| PIP4K2C (Homo sapiens, UniProt Q8TBX8) | 99 |
| Mast/stem cell growth factor receptor Kit, autoinhibited (KIT, Homo sapiens, UniProt P10721) | 87 |
| DCLK3 (Homo sapiens, UniProt Q9C098) | 77 |
| Ribosomal protein S6 kinase alpha-3, N-terminal kinase domain (RPS6KA3, Homo sapiens, UniProt P51812) | 83 |
| TEC (Homo sapiens, UniProt P42680) | 100 |
| TEK (Homo sapiens, UniProt Q02763) | 84 |
| PAK6 (Homo sapiens, UniProt Q9NQU5) | 95 |
| PIP5K1C (Homo sapiens, UniProt O60331) | 95 |
| PIK3C2B (Homo sapiens, UniProt O00750) | 73 |
| Tyrosine-protein kinase ABL1, non-phosphorylated (ABL1, Homo sapiens, UniProt P00519, H396P) | 74 |
| Ribosomal protein S6 kinase alpha-6, N-terminal kinase domain (RPS6KA6, Homo sapiens, UniProt Q9UK32) | 73 |

Study 2
SMILES: O=C(O)C1(O)Oc2cc(Br)ccc2N(Cc2ccccc2)C1=O (centres unmarked)
| organism | assay | test system | setting | how to read | inhibition |
| --- | --- | --- | --- | --- | --- |
| Arabidopsis thaliana | root length | Col-0, seedlings | 6.25 µg/mL | – | 19.8% |
| Arabidopsis thaliana | hypocotyl length | Col-0, seedlings | 6.25 µg/mL | – | 3.01% |
| Arabidopsis thaliana | root length | Col-0, seedlings | 12.5 µg/mL | – | 28.1% |
| Arabidopsis thaliana | root length | Col-0, seedlings | 3.125 µg/mL | baseline: water control | 10.6% |
| Alopecurus japonicus | fresh weight | – | 150 g ai/ha, pre-emergence treatment | – | 77.2% and 75.4% and 77.5% |
| Alopecurus aequalis | fresh weight | – | 150 g ai/ha, pre-emergence treatment | – | 90.7% and 84.6% and 85.7% |
| Arabidopsis thaliana | root length | Col-0, seedlings | 100 µg/mL | baseline: water control | 89.7% |
| Arabidopsis thaliana | root length | Col-0 | 50.0 µg/mL, 7 days, seed germination, dark | – | 59.6% |
| Arabidopsis thaliana | hypocotyl length | Col-0, seedlings | 25 µg/mL | – | 18.2% |
| Setaria viridis | fresh weight | – | 150 g ai/ha, pre-emergence treatment | – | 68.5% and 67.3% and 62.5% |
| Zea mays | fresh weight | – | soil surface spray, 150 g ai/ha, 21 days, pre-emergence crop safety | – | 21.5% and 20.9% and 22.1% |
| Echinochloa crus-galli | fresh weight | – | 150 g ai/ha, post-emergence treatment | – | 38.8% and 45.4% and 42.3% |
| Arabidopsis thaliana | root length | Col-0, seedlings | 12.5 µg/mL | baseline: water control | 28.1% |
| Arabidopsis thaliana | hypocotyl length | Col-0 | 6.25 µg/mL, 7 days, seed germination, dark | – | 3% |

Study 3 — read-out: kinase activity; action: inhibitor; method: ADP-Glo; tested at: 0.0001 µM
Target: Cyclin-dependent kinase 12, with cyclin K (CDK12, Homo sapiens, UniProt Q9NYV4)
UniProt Q9NYV4, sequence (whole entry, looked up): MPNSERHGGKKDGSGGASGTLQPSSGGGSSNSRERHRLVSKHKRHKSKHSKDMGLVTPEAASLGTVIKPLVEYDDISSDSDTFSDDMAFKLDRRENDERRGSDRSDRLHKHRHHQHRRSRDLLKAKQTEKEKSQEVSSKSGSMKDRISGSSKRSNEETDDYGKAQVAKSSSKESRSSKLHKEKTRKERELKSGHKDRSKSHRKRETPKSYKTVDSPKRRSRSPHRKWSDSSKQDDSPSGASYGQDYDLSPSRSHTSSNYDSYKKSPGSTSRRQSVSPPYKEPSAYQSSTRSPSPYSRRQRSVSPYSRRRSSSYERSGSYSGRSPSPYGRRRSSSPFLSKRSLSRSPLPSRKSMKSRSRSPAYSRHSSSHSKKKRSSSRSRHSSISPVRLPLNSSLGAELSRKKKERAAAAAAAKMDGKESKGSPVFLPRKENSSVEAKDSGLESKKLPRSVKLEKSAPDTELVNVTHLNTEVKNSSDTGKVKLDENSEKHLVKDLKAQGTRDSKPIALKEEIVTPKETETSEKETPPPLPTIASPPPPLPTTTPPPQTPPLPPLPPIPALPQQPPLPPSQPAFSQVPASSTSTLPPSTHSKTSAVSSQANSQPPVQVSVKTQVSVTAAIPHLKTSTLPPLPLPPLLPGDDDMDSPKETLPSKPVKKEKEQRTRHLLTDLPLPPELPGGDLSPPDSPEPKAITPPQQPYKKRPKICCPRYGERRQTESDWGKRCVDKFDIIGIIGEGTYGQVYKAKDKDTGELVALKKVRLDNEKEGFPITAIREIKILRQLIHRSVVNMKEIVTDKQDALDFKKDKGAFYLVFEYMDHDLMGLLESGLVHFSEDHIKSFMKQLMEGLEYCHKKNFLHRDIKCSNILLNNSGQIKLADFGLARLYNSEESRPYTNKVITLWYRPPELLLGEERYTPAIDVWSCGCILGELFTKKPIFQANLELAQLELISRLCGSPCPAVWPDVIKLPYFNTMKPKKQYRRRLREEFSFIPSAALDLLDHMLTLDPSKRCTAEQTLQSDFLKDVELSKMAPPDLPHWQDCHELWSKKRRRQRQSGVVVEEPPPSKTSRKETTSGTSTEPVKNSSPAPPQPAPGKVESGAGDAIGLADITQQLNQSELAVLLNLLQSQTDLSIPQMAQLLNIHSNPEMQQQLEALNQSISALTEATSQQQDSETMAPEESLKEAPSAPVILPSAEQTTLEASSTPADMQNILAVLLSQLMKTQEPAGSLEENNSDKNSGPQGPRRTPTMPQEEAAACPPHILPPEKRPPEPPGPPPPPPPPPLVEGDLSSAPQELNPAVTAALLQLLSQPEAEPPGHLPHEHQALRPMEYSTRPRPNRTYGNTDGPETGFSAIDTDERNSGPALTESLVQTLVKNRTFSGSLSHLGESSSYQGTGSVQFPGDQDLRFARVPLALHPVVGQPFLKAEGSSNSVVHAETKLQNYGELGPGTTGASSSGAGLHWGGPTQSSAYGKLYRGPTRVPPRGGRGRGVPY
| SMILES | inhibition |
| --- | --- |
| CCn1cnc2c(NCc3nc4cc(Cl)c(Cl)cc4[nH]3)nc(N3CCN(c4ccccn4)CC3)nc21 | 7.1% |
| CCn1cnc2c(NCc3nc4cc(Cl)c(Cl)cc4[nH]3)nc(N3CCN(C(=O)CNC(C)=O)CC3)nc21 | 3% |
| CCCCOc1nc(NCc2nc3cc(Cl)c(Cl)cc3[nH]2)c2ncn(CC)c2n1 | 7.9% |
| Cn1cc(-n2cnc3c(NCc4nc5cc(Cl)c(Cl)cc5[nH]4)nc(N4CCNCC4)nc32)cn1 | -6.8% |
| CCn1cnc2c(NCc3nc4cc(Cl)c(Cl)cc4[nH]3)nc(N3CCN(C(=O)c4cccnc4)CC3)nc21 | -17.5% |
| CCn1cnc2c(NCc3nc4cc(Cl)c(Cl)cc4[nH]3)nc(N3CCN(C(=O)c4ccncc4)CC3)nc21 | -0.5% |
| CCn1cnc2c(NCc3nc4ccc(F)c(F)c4[nH]3)nc(N3CCn4ncnc4C3)nc21 | 12.3% |
| CCn1cnc2c(NCc3nc4cc(Cl)c(Cl)cc4[nH]3)nc(N3CCN(C(=O)c4ccccc4)CC3)nc21 | -14.5% |
| CCn1cnc2c(NCc3nc4cc(Cl)c(Cl)cc4[nH]3)nc(N3CCN(Cc4ccncc4)CC3)nc21 | -6.7% |
| CC(=O)N1CCN(c2nc(NCc3nc4cc(Cl)c(Cl)cc4[nH]3)c3ncn(C(C)C)c3n2)CC1 | 2.1% |

Other studies, line by line
| SMILES | tested on | assay | test system | setting | how to read | endpoint | result |
| --- | --- | --- | --- | --- | --- | --- | --- |
| Cc1ccc(O)c(C)c1-c1cnc2[nH]c(-c3cnc(N4CCC(CN5CCN(c6ccc7c(c6)C(=O)N(C6CCC(=O)NC6=O)C7=O)CC5)CC4)nc3)cc2c1C#N (centres unmarked) | – | – | female CD-1 mouse, plasma | oral, 10 mg/kg, fasted | – | bioavailability | 27.4% |
| Cc1ccc(O)c(C)c1-c1cnc2[nH]c(-c3cnc(N4CCC5(CC4)CC(N4CCN(c6cc7c(cc6F)c(N6CCC(=O)NC6=O)nn7C)CC4)CO5)nc3)cc2c1C#N (racemic) | PKMYT1 (Homo sapiens, UniProt Q99640) | degrader, automated immunoblot (Jess) | – | 0.01 nM | baseline: GAPDH | protein level | 97.9% |
| Cc1ncc(-c2cc3c(C#N)c(-c4c(C)ccc(O)c4C)cnc3[nH]2)cn1 | – | – | phosphate buffer | 24 h, pH 7.4 | – | kinetic solubility | 25.8 µM (≈ 9.17 µg/mL) |
| Cc1ccc(O)c(C)c1-c1cnc2[nH]c(-c3cnc(N4CCC5(CC4)CC(N4CCN(c6ccc(N[C@H]7CCC(=O)NC7=O)cc6F)CC4)CO5)nc3)cc2c1C#N (single isomer, unassigned) | HCC1569 | CDK1 Thr14 phosphorylation, Jess immunoblot | – | 100 nM, 24 h then washout | – | duration of inhibition after washout | ≥ 24 h |

For quick reference, copied from above (study 3):
| SMILES | inhibition |
| --- | --- |
| CCn1cnc2c(NCc3nc4cc(Cl)c(Cl)cc4[nH]3)nc(N3CCN(Cc4ccncc4)CC3)nc21 | -6.7% |
| CC(=O)N1CCN(c2nc(NCc3nc4cc(Cl)c(Cl)cc4[nH]3)c3ncn(C(C)C)c3n2)CC1 | 2.1% |
| CCn1cnc2c(NCc3nc4cc(Cl)c(Cl)cc4[nH]3)nc(N3CCN(C(=O)CNC(C)=O)CC3)nc21 | 3% |
| CCn1cnc2c(NCc3nc4ccc(F)c(F)c4[nH]3)nc(N3CCn4ncnc4C3)nc21 | 12.3% |
| CCn1cnc2c(NCc3nc4cc(Cl)c(Cl)cc4[nH]3)nc(N3CCN(C(=O)c4ccccc4)CC3)nc21 | -14.5% |
